Published values from different studies.
Each line is one published result; not all experiments were run side by side. ± marks the error that the study gave.

The protein level of `CC(C)CC(O)(CC(C)C)c1cn(C(=O)N2CCCC2)nn1` is reported as 1.01 ± 0.11 (mouse T-cells; SILAC proteomics, refers to: FDX1; 1 nM, 6 h, unit not given; relative to: DMSO).
With `CCCc1cc(OC)c(OC)c(OC)c1OC` the GI50 was over 250 µM (DU-145; cell growth or viability, MTT; 72 h).
`CC1=CCC23OC2(C)CCC2C(C[N+](C)(C)C)C(=O)OC2C13.[I-]` (centres unmarked) gave an inhibition of 76.7% (T47D; cell growth or viability, SRB; 8.3 µM).
`CC/C=C\C/C=C\C/C=C\C/C=C\C/C=C\C/C=C\CCC(=O)Nc1ccn(C2OC(CO)C(O)C2(F)F)c(=O)n1` (centres unmarked) gave a CC50 of 39.4 µM (ACHN; NCI60 screen).
With `CNC(=O)c1cc(Oc2ccc(NC(=O)c3ccc(-c4cccc(COC(=O)CCC(=O)OC5OC6OC7(C)CCC8C(C)CCC(C5C)C68OO7)c4)cn3)cc2)ccn1` (centres unmarked) the apoptotic cells was 9.2% (Huh-7; annexin V/PI flow cytometry; 2.5 µM, 24 h).
`O=C(O)CCC(NP(=O)(O)OCCC[C@@H](NC(=O)CCC(NC(=O)c1ccc([18F])cc1)C(=O)O)C(=O)O)C(=O)O` (some centres unmarked) gave a cell uptake of 0.39 ± 0.06% (CWR22Rv1; 1 h).
Under viability, `CC(C)C[C@H](NC(=O)[C@H](C)NC(=O)[C@H](CCCCN)NC(=O)CCNC(=S)Nc1ccc2c(c1)C(=O)OC21c2ccc(O)cc2Oc2cc(O)ccc21)C(=O)N[C@@H](CCC(=O)O)C(=O)N[C@H](C(=O)N[C@@H](CC(C)C)C(=O)N[C@@H](CCCNC(=N)N)C(=O)N[C@@H](CCCNC(=N)N)C(=O)N[C@H](C(=O)NCC(=O)N[C@@H](CC(=O)O)C(=O)NCC(=O)N[C@H](C(=O)N[C@@]1(C)CCC/C=C\CCC[C@@](C)(C(=O)N[C@H](C(=O)N[C@@H](C)C(=O)N[C@@H](Cc2ccccc2)C(N)=O)[C@@H](C)O)NC(=O)[C@H](Cc2c[nH]cn2)NC(=O)[C@H](CC(N)=O)NC(=O)[C@H](CCCNC(=N)N)NC1=O)C(C)C)C(C)C)[C@@H](C)O` is recorded as “no effect” (OPM-2; MTT; up to 40 µM, 24 h).
For `CC[C@H](C)[C@H](NC(=O)[C@H](CCCNC(=N)N)NC(=O)[C@H](CCC(N)=O)NC(=O)[C@@H](NC(=O)[C@@H](NC(=O)[C@H](CCCNC(=N)N)NC(=O)[C@H](CCCCN)NC(=O)[C@@H](N)Cc1ccccc1)[C@@H](C)CC)C(C)C)C(=O)N[C@@H](CCCCN)C(=O)N[C@@H](CC(=O)O)C(=O)N[C@@H](Cc1ccccc1)C(=O)N[C@@H](CC(C)C)C(=O)N[C@@H](CCCNC(=N)N)C(=O)O`, “LPS effect on degranulation” read “no effect” (LAD2; agonist; 3 µM, together with: Escherichia coli LPS 10 µg/mL, 5 min preincubation).
For `CC[C@@H](C(=O)[C@@H](C)[C@@H](O)[C@H](C)[C@@H]1O[C@@H]([C@@H](CC)C(=O)O)CC[C@@H]1C)[C@H]1O[C@]2(C=C[C@H](NCc3ccccc3)[C@]3(CC[C@@](C)([C@H]4CC[C@](O)(CC)[C@H](C)O4)O3)O2)[C@H](C)C[C@@H]1C`, the selectivity ratio was 6.2 (HMLER CD24low/CD44high; cell viability, CellTiter-Blue; 72 h; relative to: IC50 HMLER CD24high/CD44low over CD24low/CD44high).
For `CC[C@@]1(O)C(=O)OCc2c1cc1n(c2=O)Cc2cc3cc(OC(=O)CCCC(=O)NCC(=O)N[C@@H](Cc4ccccc4)C(=O)N[C@@H](Cc4ccccc4)C(=O)N[C@@H](Cc4ccc(O)cc4)C(=O)NCCSSCCNC(=O)CCC(=O)N[C@@H](CCC(=O)O)C(=O)N[C@@H](CCCNC(=N)N)C(=O)NCC(=O)N[C@@H](CC(=O)O)C(=O)O)ccc3nc2-1`, the spheroid volume was about 50% (HepG2 spheroids; 100 µM, 7 days; relative to: initial).
With `Cc1cccc(O)c1C(=O)OCC1(O)C(Nc2ccc3c(c2)Cc2ccccc2-3)C(N)C(NC(=O)N(C)C)(C(C)O)C1(C)O` (centres unmarked) the GI50 was 0.61 µM (RXF 393; cell growth or viability, SRB).
Under “adherent cell number”, `N=C(N)NCCC[C@H](N)C(=O)NCC(=O)N[C@@H](CC(=O)O)C(=O)O` is recorded as 33 ± 8 (NIH 3T3 fibroblasts; peptide-functionalised PEG-glass; concentration not given, 4 h, serum-free, per 10× image).
`CC[C@H](C)[C@H](NC(=O)[C@H](CC(C)C)NC(=O)[C@@H](NC(=O)[C@@H](NC(=O)[C@H](CCSC)NC(C)=O)[C@@H](C)CC)[C@@H](C)CC)C(=O)N[C@H](C(=O)N[C@@H](CO)C(=O)N[C@@H](Cc1ccccc1)C(=O)N1CCC[C@H]1C(=O)N[C@@H](CCCCN)C(=O)N[C@@H](Cc1c[nH]cn1)C(=O)N[C@@H](CCCCN)C(=O)N[C@@H](CC(=O)O)C(=O)N[C@@H](Cc1c[nH]c2ccccc12)C(=O)N[C@@H](CCCCN)C(=O)N[C@H](C(=O)N[C@H](C(=O)N[C@@H](CC(C)C)C(=O)N[C@H](C(=O)N[C@@H](CCCCN)C(N)=O)C(C)C)[C@@H](C)CC)C(C)C)[C@@H](C)CC`: IL-6 production “inhibited” (SLE patient PBMCs; dose not given).
`CC[C@H](C)[C@H](NC(=O)[C@H](Cc1ccccc1)NC(=O)[C@H](CC(=O)O)NC(=O)[C@H](CCCCN)NC(=O)[C@H](C)NC(=O)[C@H](CCCCN)NC(=O)[C@H](CC(N)=O)NC(=O)[C@H](CC(C)C)NC(=O)[C@H](Cc1c[nH]c2ccccc12)NC(=O)[C@H](CCC(=O)O)NC(=O)[C@H](CCCCN)NC(=O)[C@@H](NC(=O)CN)[C@@H](C)O)C(=O)N[C@@H](CCCCN)C(=O)N[C@@H](CCC(=O)O)C(=O)N[C@@H](CCCCN)C(=O)NCC(=O)N[C@@H](CC(C)C)C(=O)NCC(=O)N[C@@H](CCSC)C(=O)N[C@@H](CC(C)C)C(=O)N[C@@H](CO)C(=O)N[C@@H](C)C(=O)N[C@@H](C)C(=O)N[C@@H](C)C(=O)N[C@@H](CC(N)=O)C(=O)N[C@@H](C)C(=O)N[C@@H](C)C(=O)N[C@@H](CC(C)C)C(=O)N[C@@H](CC(N)=O)C(=O)O` gave an EC50 of over 100 µM (F11 cells; intracellular calcium, FLIPR; 0.1% BSA).
The GI50 of `CCCc1cc(OC)c2c(c1)OCO2` is reported as over 250 µM (DU-145; cell growth or viability, MTT; 72 h).
`CNC(=O)c1cc(Oc2ccc(NC(=O)c3cc(-c4cccc(OC(=O)CCC(=O)OC5OC6OC7(C)CCC8C(C)CCC(C5C)C68OO7)c4)ccn3)cc2)ccn1` (centres unmarked) gave a selectivity ratio of 3.6 (HepG2 and LO2; cell viability, MTT; 72 h; relative to: IC50 LO2 over IC50 HepG2).
`[Cl][Ag].[Se]=c1n(C2CCCCC2)ccn1C1CCCCC1` has an IC50 of 4.4 ± 0.3 µM (LoVo-OXP (oxaliplatin-resistant); MTT; 72 h).
`C=C1C(=O)O[C@H]2[C@H]1CCC(C)=C1[C@H](OC(=O)c3cc(C(F)(F)F)cc(C(F)(F)F)c3)C[C@@](C)(O)[C@@H]12` gave a CC50 of 7 µM (M9-ENL1 leukaemia cells; annexin V/7-AAD flow cytometry; 24 h, 5% human plasma).
For `C[C@@H](O)[C@H](NC(=O)[C@H](CCCCN)NC(=O)CCC(=O)O)C(=O)NCC(=O)N[C@@H](CC(=O)O)C(=O)N[C@@H](CCC(=O)O)C(=O)N[C@@H](CCCCN)C(=O)N[C@@H](CCCCN)C(=O)NCC(=O)NCC(=O)N[C@@H](Cc1ccc(O)cc1)C(=O)NCC(=O)N[C@@H](CCCNC(=N)N)C(=O)N[C@@H](CCCCN)C(=O)N[C@@H](CCCCN)C(=O)N[C@@H](CCCNC(=N)N)C(=O)N[C@@H](CCCNC(=N)N)C(=O)N[C@@H](CCC(N)=O)C(=O)N[C@@H](CCCNC(=N)N)C(=O)N[C@@H](CCCNC(=N)N)C(=O)N[C@@H](CCCNC(=N)N)C(N)=O`, “caspase-3 positive cells” read 1.94% (Huh-7; apoptosis, flow cytometry; 40 µM, 16 h).
`CCCc1cc2c(c(OC)c1OC)OCO2` has a GI50 of over 250 µM (T47D; cell growth or viability; 72 h).
For `CN1C(=O)C2(Cc3ccc(CC45SSC(CO)(C(=O)N4C)N(C)C5=O)cc3)SSC1(CO)C(=O)N2C` (racemic), “mRNA level reduction” read over 50% (MCF7; qRT-PCR, refers to: VEGF; 200 nM, together with: deferoxamine 300 µM).
Under “lowest effective concentration”, `N=C(N)Nc1ccc(-c2nc3ccc(-c4ccc5nc(-c6ccc(NC(=N)N)cc6)[nH]c5c4)cc3[nH]2)cc1` is recorded as 1 µM (FECD patient corneal endothelial cells; RT-qPCR, refers to: TCF4 retained intron 3; reduction).
For `C=C1C(=O)O[C@H]2[C@H]1CCC(COC(=O)c1cc(C(F)(F)F)cc(C(F)(F)F)c1)=C1CC[C@@](C)(O)[C@@H]12`, the CC50 was 4.1 µM (M9-ENL1 leukaemia cells; annexin V/7-AAD flow cytometry; 24 h, 5% human plasma).
`CC(C)C(C)C=CC(C)C1CCC2C1(C)CCC1C23C=CC2(CC(OC(=O)CCCCC4SCC5NC(=O)NC54)CCC12C)OO3` (centres unmarked) gave an EC50 of over 10 µM (T47D; cell growth or viability, ATP luminescence).
`CC[C@H](C)[C@H](NC(=O)[C@H](Cc1ccccc1)NC(=O)[C@H](CC(=O)O)NC(=O)[C@H](CCCCN)NC(=O)[C@H](C)NC(=O)[C@H](CCCCN)NC(=O)[C@H](CC(N)=O)NC(=O)[C@H](CC(C)C)NC(=O)[C@H](Cc1c[nH]c2ccccc12)NC(=O)[C@H](CCC(=O)O)NC(=O)[C@H](CCCCN)NC(=O)[C@@H](NC(=O)CNC(=O)[C@H](C)N)[C@@H](C)O)C(=O)N[C@@H](CCCCN)C(=O)N[C@@H](CCC(=O)O)C(=O)N[C@@H](CCCCN)C(=O)NCC(=O)N1CCC[C@H]1C(=O)NCC(=O)N[C@@H](CCSC)C(=O)N[C@@H](CC(C)C)C(=O)N[C@@H](CO)C(=O)N[C@@H](C)C(=O)N[C@@H](C)C(=O)N[C@@H](C)C(=O)N[C@@H](CC(N)=O)C(=O)N[C@@H](C)C(=O)N[C@@H](C)C(=O)N[C@@H](CC(C)C)C(=O)N[C@@H](CC(N)=O)C(=O)O` gave an EC50 of over 100 µM (HEK293 cells; intracellular calcium, FLIPR; 0.1% BSA).
With `COc1cc(C)c(OC)c2c1OCO2` the GI50 was over 250 µM (DU-145; cell growth or viability, MTT; 72 h).
The TNF-α reduction of `C=CCc1ccc(OC(=O)COC(=O)Cn2cnc3c2c(=O)n(C)c(=O)n3C)c(OC)c1` is reported as 49% (RAW264.7; ELISA; 10 µM, together with: LPS; relative to: LPS alone).
`COc1c(C)cc2c(c1OC)OCO2` has a GI50 of over 250 µM (T47D; cell growth or viability; 72 h).
`Cc1cc(C)c(N2CCN(c3c(C)cc(C)cc3C)C2=[Se])c(C)c1.[Cl][Ag]` has a resistance factor of 1 (A2780 ADR; MTT; relative to: A2780 ADR over A2780).
For `C[P+](c1ccccc1)(c1ccccc1)c1ccccc1`, the GI50 was 3.33 µM (T47D; cell growth or viability, MTT; 72 h).
For `COC1=C2CC(C)CC(OC)C(O)C(C)C3OC3(C)C(OC(N)=O)C(OC)C=CC=C(C)C(=O)NC(=CC1=O)C2=O` (centres unmarked), protein level read “increased” (SK-BR-3; Western blot, refers to: Hsp70 and Hsp90; concentration not given, 24 h).
`CCC[P+](c1ccccc1)(c1ccccc1)c1ccccc1` gave a GI50 of 2.39 µM (T47D; cell growth or viability, MTT; 72 h).
`COC[C@@H](NC(C)=O)C(=O)NCc1ccc(-c2cccc(Cl)c2)cc1`: “use-dependent Na+ current” “decreased” (CAD; inhibitor; concentration not given).
The GI50 of `CCCc1cc(OC)c2c(c1OC)OCO2` is reported as 167 µM (A-375; cell growth or viability, MTT; 72 h).
`CCCC[C@H](NC(=O)[C@H](Cc1ccccc1)NC(=O)[C@H](Cc1c[nH]cn1)NC(=O)CCNC(=O)[C@@H](NC(=O)[C@H](C)NC(=O)[C@H](Cc1c[nH]c2ccccc12)NC(=O)[C@H](CCC(N)=O)NC(=O)[C@H](N)Cc1ccc(O)cc1)C(C)C)C(N)=O` gave a cell growth of 138 ± 11% (Balb/3T3-BRS-3; MTT; 10 nM, 16 h).

A few entries again:
`CC(C)C(C)C=CC(C)C1CCC2C1(C)CCC1C23C=CC2(CC(OC(=O)CCCCC4SCC5NC(=O)NC54)CCC12C)OO3` (centres unmarked) gave an EC50 of over 10 µM (T47D; cell growth or viability, ATP luminescence).
`C=C1C(=O)O[C@H]2[C@H]1CCC(C)=C1[C@H](OC(=O)c3cc(C(F)(F)F)cc(C(F)(F)F)c3)C[C@@](C)(O)[C@@H]12` gave a CC50 of 7 µM (M9-ENL1 leukaemia cells; annexin V/7-AAD flow cytometry; 24 h, 5% human plasma).
`Cc1cc(C)c(N2CCN(c3c(C)cc(C)cc3C)C2=[Se])c(C)c1.[Cl][Ag]` has a resistance factor of 1 (A2780 ADR; MTT; relative to: A2780 ADR over A2780).
For `C=C1C(=O)O[C@H]2[C@H]1CCC(COC(=O)c1cc(C(F)(F)F)cc(C(F)(F)F)c1)=C1CC[C@@](C)(O)[C@@H]12`, the CC50 was 4.1 µM (M9-ENL1 leukaemia cells; annexin V/7-AAD flow cytometry; 24 h, 5% human plasma).
